# Measurements gathered from unrelated publications.
# Lines come from different studies, so protocols differ. “And” joins repeats or separate records; there may be more than shown. Numbers after ± are the reported error.
Structure (SMILES),assay,test system,setting,IC50
Clc1ccc(/C=N/N=C/c2ccc(Cl)cc2Cl)c(Cl)c1,nitric oxide scavenging,,antioxidant,845 µM
Cc1c(CN2CCN(C(=O)[C@H](C)O)CC2)sc2c(N3CCOCC3)nc(-c3cnc(N)nc3)nc12,measured: pAkt,"patients, gastrointestinal stromal tumour, plasma",,0.0261 µg/mL
COc1cccc(/C=N/N2C(=O)c3ccccc3NC2c2cccc(OC)c2O)c1O (stereo not drawn),photosynthetic electron transport,Spinacia oleracea chloroplasts,,344 µM
CCC(=O)Nc1nc(-c2ccccc2)ns1,"CoA-CPM signal reduction, CPM fluorescence thiol",cell-free biochemical,"assay interference counter-screen, with: CoA replacing acetyl-CoA",> 125 µM
Brc1cccc(/C=N/N=C/c2cccc(Br)c2)c1,"ferric reducing antioxidant power, FRAP",,,> 3000 µM
CCCC[C@@H]1OC(=O)c2ccccc21,"platelet aggregation, inhibitor",platelets,with: ADP 10 µmol/L,1290 ± 110 µM
Fc1cccc(/C=N/N=C/c2cccc(F)c2)c1,"ferric reducing antioxidant power, FRAP",,,2900 µM
CCCCC(O)c1ccccc1C(=O)O (stereo not drawn),"platelet aggregation, inhibitor",platelets,with: arachidonic acid 1 mmol/L,350 ± 90 µM
CCOC(=O)C1=C(CCl)NC(=O)NC1c1cccc(F)c1 (stereo not drawn),nitric oxide scavenging,,,194 µM
Sc1nnc(-c2ccccc2)[nH]1,"CoA-CPM signal reduction, CPM fluorescence thiol",cell-free biochemical,"assay interference counter-screen, with: CoA replacing acetyl-CoA",280 ± 90 µM
CC[C@H](C)[C@H](NC(C)=O)C(=O)N[C@H]1CSSC[C@@H](C(=O)N[C@H](C(N)=O)[C@@H](C)O)NC(=O)[C@H](CCCNC(=N)N)NC(=O)[C@H](Cc2c[nH]cn2)NC(=O)[C@](C)(CC)NC(=O)CNC(=O)[C@H](Cc2c[nH]c3ccccc23)NC(=O)[C@H](CC(=O)O)NC(=O)[C@H](CCC(N)=O)NC(=O)[C@H](Cc2c[nH]c3ccccc23)NC(=O)[C@H](C(C)C)NC1=O,"complement activation, inhibitor, ELISA, measured: C5b-9",normal human serum,,0.71 ± 0.07 µM
O=S1(=O)CC(S(=O)(=O)Nc2ccccc2-c2cccs2)c2ccccc21 (stereo not drawn),"CoA-CPM signal reduction, CPM fluorescence thiol",cell-free biochemical,"assay interference counter-screen, with: CoA replacing acetyl-CoA",> 125 µM
CCOC(=O)C1=C(CSC2=NCCS2)NC(=O)NC1c1cccc(OC)c1 (stereo not drawn),nitric oxide scavenging,,,146 µM
O=C1O[C@H]([C@@H](O)CO)C(O)=C1O,"DPPH radical scavenging, DPPH",,,19.7 µg/mL
Cc1ccc(C=NC(=S)NNC(=O)Cc2ccc(Cl)cc2Cl)cc1,hydroxyl radical scavenging,,,56 ± 1.41 µM
O=C1CC(N(CCc2ccccc2)C(=S)Nc2ccccc2)C(=O)N1c1ccc(Br)cc1 (stereo not drawn),"CoA-CPM signal reduction, CPM fluorescence thiol",cell-free biochemical,"assay interference counter-screen, with: CoA replacing acetyl-CoA",> 125 µM
O=C(Cc1ccc(Cl)cc1Cl)NNC(=S)N=Cc1ccccc1[N+](=O)[O-],iron chelation,cell-free,EDTA as standard,49.4 ± 1.54 µM
CC[C@H](C)[C@H](NC(C)=O)C(=O)N[C@H]1CSSC[C@@H](C(=O)N[C@H](C(N)=O)[C@@H](C)O)NC(=O)[C@H](CCCNC(=N)N)NC(=O)[C@H](Cc2c[nH]cn2)NC(=O)[C@H](C)NC(=O)CNC(=O)[C@H](Cc2c[nH]c3ccccc23)NC(=O)[C@H](CC(=O)O)NC(=O)[C@H](CCC(N)=O)NC(=O)[C@H](Cc2c[nH]c3ccccc23)NC(=O)[C@H](C(C)C)NC1=O,"complement activation, inhibitor, ELISA, measured: C5b-9",normal human serum,,0.6 ± 0.04 µM
Cc1cccc(/C=N/N=C/c2cccc(C)c2)c1,"ferric reducing antioxidant power, FRAP",,,> 3000 µM
O=C(Cc1ccc(Cl)cc1Cl)NNC(=S)N=Cc1ccc(O)c(O)c1,iron chelation,cell-free,EDTA as standard,30.7 ± 1.47 µM
CC[C@H](C)[C@H](NC(=O)[C@H](CCCNC(=N)N)NC(=O)[C@H](CCC(=O)O)NC(C)=O)C(=O)N[C@H]1CSSC[C@@H](C(=O)N[C@H](C(N)=O)[C@@H](C)O)NC(=O)[C@H](CCCNC(=N)N)NC(=O)[C@H](Cc2c[nH]cn2)NC(=O)[C@H](Cc2cccc3ccccc23)NC(=O)CNC(=O)[C@H](Cc2c[nH]c3ccccc23)NC(=O)[C@H](CC(=O)O)NC(=O)[C@H](CCC(N)=O)NC(=O)[C@H](Cc2cccc3ccccc23)NC(=O)[C@H](C(C)C)NC1=O,"complement activation, inhibitor, ELISA, measured: C5b-9",normal human serum,,2.37 ± 0.21 µM
Fc1ccccc1/C=N/N=C/c1ccccc1F,"ferric reducing antioxidant power, FRAP",,,1080 µM
Cc1cc(C(C)(C)C)c(O)c(C(C)(C)C)c1,DMPD radical scavenging,,,8.72 µg/mL
COc1ccc(C=NC(=S)NNC(=O)Cc2ccc(Cl)cc2Cl)cc1OC,hydroxyl radical scavenging,,,36.7 ± 2.25 µM
Clc1cccc(/C=N/N=C/c2cccc(Cl)c2)c1,"ferric reducing antioxidant power, FRAP",,,1780 µM
CC[C@H](C)[C@H](NC(C)=O)C(=O)N[C@H]1CSSC[C@@H](C(=O)N[C@H](C(N)=O)[C@@H](C)O)NC(=O)[C@H](CCCNC(=N)N)NC(=O)[C@H](Cc2c[nH]cn2)NC(=O)[C@H](Cc2cccc3ccccc23)NC(=O)CNC(=O)[C@H](Cc2c[nH]c3ccccc23)NC(=O)[C@H](CC(=O)O)NC(=O)[C@H](CCC(N)=O)NC(=O)[C@H](Cc2cn(C)c3ccccc23)NC(=O)[C@H](C(C)C)NC1=O,"complement activation, inhibitor, ELISA, measured: C5b-9",normal human serum,,0.95 ± 0.09 µM
C[C@@H]1O[C@@H](O[C@H]2[C@H](O)[C@@H](O)[C@H](OC[C@H]3O[C@@H](OC(=O)[C@]45CCC(C)(C)C[C@H]4C4=CC[C@@H]6[C@@]7(C)CC[C@H](O[C@@H]8OC[C@H](O)[C@H](O)[C@H]8O)[C@@](C)(CO)[C@@H]7CC[C@@]6(C)[C@]4(C)CC5)[C@H](O)[C@@H](O)[C@@H]3O)O[C@@H]2CO)[C@H](O)[C@H](O)[C@H]1O,"peroxynitrite scavenging, dihydrorhodamine fluorescence",,,62.9 ± 5.25 µM
CCN(CC)c1ccc(/C=N/c2ccc(F)cc2)c(O)c1,"nitric oxide scavenging, sodium nitroprusside",,,101 µM
CC(=O)N[C@@H](CC(N)=O)C(=O)N[C@@H](CCCNC(=N)N)C(=O)N[C@@H](CC(C)C)C(=O)N[C@H]1CSSC[C@@H](C(=O)N[C@H](C(N)=O)[C@@H](C)O)NC(=O)[C@H](CCCNC(=N)N)NC(=O)[C@H](Cc2c[nH]cn2)NC(=O)[C@H](Cc2cccc3ccccc23)NC(=O)CNC(=O)[C@H](Cc2c[nH]c3ccccc23)NC(=O)[C@H](CC(=O)O)NC(=O)[C@H](CCC(N)=O)NC(=O)[C@H](Cc2cccc3ccccc23)NC(=O)[C@H](C(C)C)NC1=O,"complement activation, inhibitor, ELISA, measured: C5b-9",normal human serum,,1.34 ± 0.09 µM
CCN(CC)c1ccc(/C=N/c2ccc(Cl)cc2)c(O)c1,"nitric oxide scavenging, sodium nitroprusside",,,31.7 µM
COc1cc(-c2cc(=O)c3c(O)c(OC)c(O)cc3o2)ccc1O,ABTS radical scavenging,,,12.4 ± 0.35 µg/mL
CCN(CC)c1ccc(/C=N/c2ccc(Br)cc2)c(O)c1,"ferric reducing power, FRAP",,,> 400 µM
Fc1ccc(/C=N/N=C/c2ccc(F)cc2)cc1,"ferric reducing antioxidant power, FRAP",,,1220 µM
O=C(COC(=O)c1ccccc1Nc1cccc(C(F)(F)F)c1)NNS(=O)(=O)c1ccccc1,"nitric oxide scavenging, Griess",,"30 min, 25 °C, with: sodium nitroprusside 5 mM",238 µM and 239 µM
CN1CC(Oc2cnc(C#N)cc2-c2ccn3nc(NC(=O)C4CC4)cc3c2)C1,TNF release,mouse whole blood,with: LPS,0.6 µM
O=C(O)c1cccnc1Nc1cccc(C(F)(F)F)c1,input conductance,"vascular smooth muscle cells, guinea pig, SMA arteriole segments in situ",,40 µM
Nc1ccc(/C=N/N=C/c2ccc(N)cc2)cc1,nitric oxide scavenging,,antioxidant,622 µM
C=C1CC[C@]2(C(=O)O[C@@H]3O[C@H](CO[C@@H]4O[C@H](CO)[C@@H](O[C@@H]5O[C@@H](C)[C@H](O)[C@@H](O)[C@H]5O)[C@H](O)[C@H]4O)[C@@H](O)[C@H](O)[C@H]3O)CC[C@]3(C)C(=CC[C@@H]4[C@@]5(C)CC[C@H](O[C@@H]6OC[C@H](O)[C@H](O)[C@H]6O[C@@H]6O[C@@H](C)[C@H](O)[C@@H](O)[C@H]6O)C(C)(C)[C@@H]5CC[C@]43C)[C@@H]2C1,"peroxynitrite scavenging, dihydrorhodamine fluorescence",,,34.8 ± 1.34 µM
COc1ccc(Sc2nsc(N)n2)cc1,"CoA-CPM signal reduction, CPM fluorescence thiol",cell-free biochemical,"assay interference counter-screen, with: CoA replacing acetyl-CoA",> 125 µM
CC(=O)N[C@@H](CC(N)=O)C(=O)N[C@@H](CC(N)=O)C(=O)N[C@@H](CC(C)C)C(=O)N[C@H]1CSSC[C@@H](C(=O)N[C@H](C(N)=O)[C@@H](C)O)NC(=O)[C@H](CCCNC(=N)N)NC(=O)[C@H](Cc2c[nH]cn2)NC(=O)[C@H](C)NC(=O)CNC(=O)[C@H](Cc2c[nH]c3ccccc23)NC(=O)[C@H](CC(=O)O)NC(=O)[C@H](CCC(N)=O)NC(=O)[C@H](Cc2c[nH]c3ccccc23)NC(=O)[C@H](C(C)C)NC1=O,"complement activation, inhibitor, ELISA, measured: C5b-9",normal human serum,,0.46 ± 0.09 µM
COc1ccc(CNC2CC(=O)N(c3ccc(Br)cc3)C2=O)cc1 (stereo not drawn),"CoA-CPM signal reduction, CPM fluorescence thiol",cell-free biochemical,"assay interference counter-screen, with: CoA replacing acetyl-CoA",> 125 µM
CCOC(=O)C1=C(CCl)NC(=O)NC1c1ccc(C)cc1 (stereo not drawn),nitric oxide scavenging,,,283 µM
C[C@@H]1O[C@@H](O[C@@H]2[C@@H](O)[C@H](OCCc3ccc(O)c(O)c3)O[C@H](CO)[C@H]2OC(=O)/C=C/c2ccc(O)c(O)c2)[C@H](O)[C@H](O)[C@H]1O,DPPH radical scavenging,,,7.74 ± 0.06 µg/mL
OC1CCC(Oc2cccc3cnc(Nc4ccc5nc[nH]c5c4)nc23)CC1 (stereo not drawn),cell viability,patient-derived ovarian cancer organoids,96 h,0.876 µM
O=C1CC(S/C(=N\c2ccccc2)Nc2ccccc2)C(=O)N1c1ccc(Br)cc1 (stereo not drawn),"CoA-CPM signal reduction, CPM fluorescence thiol",cell-free biochemical,"assay interference counter-screen, with: CoA replacing acetyl-CoA",> 125 µM
CC[C@H](C)[C@H](NC(=O)[C@H](CCCNC(=N)N)NC(=O)[C@H](CCC(=O)O)NC(C)=O)C(=O)N[C@H]1CSSC[C@@H](C(=O)N[C@H](C(N)=O)[C@@H](C)O)NC(=O)[C@H](CCCNC(=N)N)NC(=O)[C@H](Cc2c[nH]cn2)NC(=O)[C@H](C)NC(=O)CNC(=O)[C@H](Cc2c[nH]c3ccccc23)NC(=O)[C@H](CC(=O)O)NC(=O)[C@H](CCC(N)=O)NC(=O)[C@H](Cc2c[nH]c3ccccc23)NC(=O)[C@H](C(C)C)NC1=O,"complement activation, inhibitor, ELISA, measured: C3b",normal human serum,,0.84 ± 0.06 µM
Cc1ccc(SC2=CS(=O)(=O)c3ccccc32)cc1,"CoA-CPM signal reduction, CPM fluorescence thiol",cell-free biochemical,"assay interference counter-screen, with: CoA replacing acetyl-CoA",> 125 µM
CC[C@H](C)[C@H](N)C(=O)N[C@H]1CSSC[C@@H](C(=O)N[C@H](C(N)=O)[C@@H](C)O)NC(=O)[C@H](CCCNC(=N)N)NC(=O)[C@H](Cc2c[nH]cn2)NC(=O)[C@H](Cc2c[nH]cn2)NC(=O)CNC(=O)[C@H](Cc2c[nH]c3ccccc23)NC(=O)[C@H](CC(=O)O)NC(=O)[C@H](CCC(N)=O)NC(=O)[C@H](C(C)C)NC(=O)[C@H](C(C)C)NC1=O,"complement activation, inhibitor, ELISA, measured: C3b",normal human serum,,6.17 ± 1.03 µM

# Repeated from above:
Structure (SMILES),assay,test system,setting,IC50
COc1cccc(/C=N/N2C(=O)c3ccccc3NC2c2cccc(OC)c2O)c1O (stereo not drawn),photosynthetic electron transport,Spinacia oleracea chloroplasts,,344 µM
CCC(=O)Nc1nc(-c2ccccc2)ns1,"CoA-CPM signal reduction, CPM fluorescence thiol",cell-free biochemical,"assay interference counter-screen, with: CoA replacing acetyl-CoA",> 125 µM
Brc1cccc(/C=N/N=C/c2cccc(Br)c2)c1,"ferric reducing antioxidant power, FRAP",,,> 3000 µM
CCCC[C@@H]1OC(=O)c2ccccc21,"platelet aggregation, inhibitor",platelets,with: ADP 10 µmol/L,1290 ± 110 µM
Fc1cccc(/C=N/N=C/c2cccc(F)c2)c1,"ferric reducing antioxidant power, FRAP",,,2900 µM
CCCCC(O)c1ccccc1C(=O)O (stereo not drawn),"platelet aggregation, inhibitor",platelets,with: arachidonic acid 1 mmol/L,350 ± 90 µM
